Literature values, collected from citations in different studies.
Each numbered part shows a few of the values that one paper quotes.
Sequence of UniProt P35354 (whole entry, looked up): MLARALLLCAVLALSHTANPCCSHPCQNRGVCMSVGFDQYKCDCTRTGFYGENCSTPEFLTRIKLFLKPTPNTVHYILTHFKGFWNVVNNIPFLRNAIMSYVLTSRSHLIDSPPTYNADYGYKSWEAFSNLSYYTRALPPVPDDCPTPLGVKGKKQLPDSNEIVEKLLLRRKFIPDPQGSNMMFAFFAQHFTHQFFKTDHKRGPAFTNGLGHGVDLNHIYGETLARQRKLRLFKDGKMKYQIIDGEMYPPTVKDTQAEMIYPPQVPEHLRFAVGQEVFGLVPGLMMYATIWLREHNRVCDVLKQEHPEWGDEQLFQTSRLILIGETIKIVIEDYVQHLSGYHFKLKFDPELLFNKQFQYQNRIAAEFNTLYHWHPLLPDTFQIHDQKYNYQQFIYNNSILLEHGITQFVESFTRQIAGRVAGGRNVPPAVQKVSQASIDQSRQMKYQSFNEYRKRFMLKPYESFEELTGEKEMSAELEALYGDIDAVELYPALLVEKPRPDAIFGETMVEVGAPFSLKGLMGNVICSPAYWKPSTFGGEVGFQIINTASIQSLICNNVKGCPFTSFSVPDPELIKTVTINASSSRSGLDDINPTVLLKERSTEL

Study 1
Organism: Cryptosporidium parvum
Method: high-throughput screen
Tested at: concentration not given
Measurement: activity
SMILES = CC[C@@H](C(N)=O)N1CCCC1=O; value = inactive
SMILES = OC[C@H]1O[C@@H](n2cnc3c(N[C@H]4CCC[C@@H]4O)ncnc32)[C@H](O)[C@@H]1O; value = inactive
SMILES = O=C1CC[C@@]2(O)[C@H]3Cc4ccc(O)c5c4[C@@]2(CCN3CC2CC2)[C@H]1O5; value = inactive
SMILES = CC(C)CC(N(C)C)C1(c2ccc(Cl)cc2)CCC1 (centres unmarked); value = inactive
SMILES = C[C@]12CC[C@H]3[C@@H](CCC4=CC(=O)CC[C@@]43C)[C@@H]1CC[C@@H]2O; value = inactive
SMILES = C[C@]12CC[C@H](O)CC1=CC[C@@H]1[C@@H]2CC[C@]2(C)C(=O)CC[C@@H]12; value = inactive
SMILES = CN1C(=O)CN=C(c2ccccc2)c2cc([N+](=O)[O-])ccc21; value = inactive
SMILES = C[C@]12C/C(=C/O)C(=O)C[C@@H]1CC[C@@H]1[C@@H]2CC[C@@]2(C)[C@H]1CC[C@]2(C)O; value = inactive
SMILES = Oc1ccc2c3c1O[C@H]1[C@@H](O)CC[C@@]4(O)[C@@H](C2)N(CC2CCC2)CC[C@]314; value = inactive
SMILES = CN1C(=O)COc2c(C(=O)NC3CN4CCC3CC4)cc(Cl)cc21 (centres unmarked); value = inactive
SMILES = Cl.Oc1cc2c(cc1O)[C@H]1c3ccccc3CN[C@@H]1CC2; value = inactive
SMILES = O=C(O)CCCc1ccc(N(CCCl)CCCl)cc1; value = inactive
SMILES = CC[C@]1(O)CC[C@H]2[C@@H]3CCC4=CCCC[C@@H]4[C@H]3CC[C@@]21C; value = inactive
SMILES = CC(O)(CS(=O)(=O)c1ccc(F)cc1)C(=O)Nc1ccc(C#N)c(C(F)(F)F)c1 (centres unmarked); value = inactive
SMILES = c1ccc2c3c([nH]c2c1)CNCC3; value = inactive
SMILES = O=c1c2ccccc2[se]n1-c1ccccc1; value = inactive
SMILES = C[N+]1(C)CCN(c2ccccc2)CC1; value = inactive
SMILES = CNC1=Nc2ccc(Cl)cc2C(c2ccccc2)=[N+]([O-])C1; value = inactive
SMILES = C[C@H]1CCC[C@H](O)CCCCCc2cc(O)cc(O)c2C(=O)O1; value = inactive
SMILES = CCCCC/C=C\C/C=C\C/C=C\C/C=C\CCCC(=O)Nc1ccc(O)cc1; value = inactive
SMILES = O=C1Nc2ccc(Cl)cc2C(c2ccccc2Cl)=NC1O (centres unmarked); value = inactive
SMILES = c1ccc2c(c1)Nc1ccccc1S2; value = inactive
SMILES = C#CCN(C)[C@H](C)Cc1ccccc1; value = inactive
SMILES = NCCc1ccccn1; value = inactive
SMILES = C=C(C)CN1CC[C@]23c4c5ccc(O)c4O[C@H]2c2[nH]c4ccccc4c2C[C@@]3(O)C1C5.Cl.O; value = inactive

Study 2
SMILES: OCCN1CCN(CCC=C2c3ccccc3Sc3ccc(C(F)(F)F)cc32)CC1
Cell line: MCF7
Tested at: concentration not given
Measurement: fold change
assay = microarray, refers to: SQSTM1 mRNA; how to read = baseline: DMSO; value = 1.19
assay = microarray, Connectivity Map, refers to: BHLHE40 mRNA; conditions = 6 h; how to read = baseline: DMSO; value = 2.19
assay = microarray, Connectivity Map, refers to: LPIN1 mRNA; conditions = 6 h; how to read = baseline: DMSO; value = 1.9
assay = microarray, refers to: CALHM2 mRNA (probe 57715_at); how to read = baseline: vehicle (DMSO); value = 1.14

Single results of other studies
SMILES = O=C(CCCCC1SCC2NC(=O)NC21)Nc1cccc([211At])c1 (centres unmarked); system = human serum; conditions = 24 h; measurement = intact compound remaining; value = 64%
SMILES = O=C1CN=C(c2ccccc2Cl)c2cc([N+](=O)[O-])ccc2N1; system = supercritical CO2; measurement = crossover pressure; value = 140 to 170 bar
SMILES = O=C1Nc2ccc(Cl)cc2C(c2ccccc2Cl)=NC1O (centres unmarked); tested on = dopamine transporter; measurement = IC50; value = > 10000 nM
SMILES = CCCCCc1cc(O)c2c(c1)OC(C)(C)[C@@H]1CCC(C)=C[C@@H]21; system = human, plasma; conditions = dose not given, therapeutic dronabinol dosing; measurement = Cmax; value = 0.025 µM
SMILES = CCOC(=O)[C@@H]1CSCC(=O)N[C@@H](CC)C(=O)N(C)[C@@H](C)C(=O)N[C@@H](CC(C)C)C(=O)N(C)[C@H](C)C(=O)N(CC(C)C)CC(=O)N[C@@H](CC(C)C)C(=O)N(C)[C@H](C)C(=O)N[C@@H](CC(C)C)C(=O)N1C; measurement = PAMPA log Pe; value = -6.6
SMILES = COC[C@@H](c1ccc(C(F)(F)F)cc1)N1CCN(C2(C)CCN(C(=O)c3c(C)ncnc3C)CC2)C[C@@H]1C; tested on = HIV-1; assay = viral replication; system = R5 strains; conditions = 11; measurement = IC50; value = 1.58 ng/mL
SMILES = CCCC(=O)OCCCCCC(=O)N[C@H](C(=O)N1C[C@H](O)C[C@H]1C(=O)NCc1ccc(-c2scnc2C)cc1)C(C)(C)C; assay = PAMPA; measurement = log permeability (Pe); value = -5.19
SMILES = NC(=O)c1ccc2nc(-c3ccc(C4(N)CCC4)cc3)c(-c3ccccc3)n2n1; tested on = FLT3 D835Y; assay = DiscoverX KINOMEscan; measurement = Kd; value = 210 nM
SMILES = COC(=O)[C@H](c1ccccc1)[C@H]1CCCCN1; system = human, CES1 wild type, plasma; conditions = oral, 10 mg methylphenidate, single dose after breakfast, median; measurement = AUC(0-inf); value = 21.4 ng·h/mL
SMILES = NCC1(CC(=O)O)CCCCC1; tested on = dopamine transporter; measurement = IC50; value = > 10000 nM
SMILES = Cc1cccc(-c2[nH]c(CNc3ccccc3F)nc2-c2ccc3ncnn3c2)n1; system = rat; conditions = oral, 14 days, non-GLP dose-range study; measurement = MTD; value = 80 mg/kg/day
SMILES = CNC(=N)NCCC[C@H](NC(=O)[C@H](CC(C)C)NC(=O)NNC(=O)[C@H](Cc1ccccc1)NC(=O)[C@H](CO)NC(=O)[C@H](CC(N)=O)NC(=O)[C@@H](Cc1cccnc1)NC(=O)[C@H](N)Cc1ccc(O)cc1)C(=O)NCC(N)=O; tested on = KISS1R human; assay = cellular activity; measurement = EC50; value = > 10000 nM
SMILES = O=c1c(O)c(-c2ccc(O)c(O)c2)oc2cc(O)cc(O)c12; system = human healthy volunteers; conditions = oral, 100 mg; measurement = Cmax; value = 7.65 µM
SMILES = COc1cc(OC)c(OC)cc1C=O; tested on = PTGS2 (Homo sapiens, UniProt P35354); assay = inhibitor; measurement = IC50; value = 510000 nM
SMILES = O=c1[nH]c2ccccc2n1C1CCN(CCCC(c2ccc(F)cc2)c2ccc(F)cc2)CC1; tested on = dopamine D2 receptor; assay = binding; measurement = Ki; value = 11.8 nM
SMILES = CC(C)CCCCCCCCC[C@@H]1CC(=O)N[C@@H](CCC(=O)O)C(=O)N[C@@H](CC(C)C)C(=O)N[C@H](CC(C)C)C(=O)N[C@@H](C(C)C)C(=O)N[C@@H](CC(=O)O)C(=O)N[C@H](CC(C)C)C(=O)N[C@@H](CC(C)C)C(=O)O1; tested on = transmissible gastroenteritis virus; system = epithelial cells; how to read = range over; measurement = antiviral concentration range; value = 15 to 50 µg/mL
SMILES = O=C(O)[C@@H](c1ccccc1)[C@@H]1CCCCN1; system = human, by CES1 genotype, plasma; conditions = oral, 10 mg methylphenidate, single dose, median; measurement = Cmax; value = 114 ng/mL
SMILES = CNC(=N)NCCC[C@H](NC(=O)[C@H](CC(C)C)NC(=O)NNC(=O)[C@H](Cc1ccccc1)NC(=O)[C@H](CO)NC(=O)[C@H](CC(N)=O)NC(=O)[C@@H](Cc1ccncc1)NC(=O)[C@H](N)Cc1ccc(O)cc1)C(=O)N[C@@H](Cc1ccccc1)C(N)=O; tested on = KISS1R (human); assay = cellular activity; measurement = IC50; value = 8.94 nM
SMILES = C=CC(=O)N1CCC([C@@H]2CCNc3c(C(N)=O)c(-c4ccc(Oc5ccccc5)cc4)nn32)CC1; system = human; conditions = concentration not given, established safety range; measurement = Cmax; value = ≤ 1340 ng/mL
SMILES = CCOC(=O)[C@@H]1CSCC(=O)N[C@@H](CC)C(=O)N(C)[C@@H](C)C(=O)N[C@@H](CC(C)C)C(=O)N(C)[C@H](C)C(=O)N(CC)CC(=O)N[C@H](CC(C)C)C(=O)N(C)[C@H](C)C(=O)N[C@@H](CC(C)C)C(=O)N1C; measurement = PAMPA log Pe; value = -7.2
SMILES = CNC(=O)c1c(C)oc2cc(Oc3ccnc4cc(OCCN5CCOCC5)ccc34)ccc12; tested on = VEGFR-2; conditions = target plasma concentration; measurement = IC50; value = 8 ng/mL

Excerpt of the above (study 1):
SMILES = CNC1=Nc2ccc(Cl)cc2C(c2ccccc2)=[N+]([O-])C1; value = inactive
SMILES = C[C@H]1CCC[C@H](O)CCCCCc2cc(O)cc(O)c2C(=O)O1; value = inactive
SMILES = CCCCC/C=C\C/C=C\C/C=C\C/C=C\CCCC(=O)Nc1ccc(O)cc1; value = inactive
SMILES = O=C1Nc2ccc(Cl)cc2C(c2ccccc2Cl)=NC1O (centres unmarked); value = inactive
SMILES = c1ccc2c(c1)Nc1ccccc1S2; value = inactive
